# Measurements pooled from the literature.
# Protocols differ between the studies behind these lines. “And” joins repeats or separate records; there may be more than shown. ± gives the spread as reported.
# Chain of UniProt A5GZW8 (whole entry, looked up): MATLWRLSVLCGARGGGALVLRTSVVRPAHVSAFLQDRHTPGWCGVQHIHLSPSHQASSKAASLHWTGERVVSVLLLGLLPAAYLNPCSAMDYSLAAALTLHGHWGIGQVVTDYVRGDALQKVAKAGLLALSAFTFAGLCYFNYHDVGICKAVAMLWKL
# Chain of UniProt Q007T0 (whole entry, looked up): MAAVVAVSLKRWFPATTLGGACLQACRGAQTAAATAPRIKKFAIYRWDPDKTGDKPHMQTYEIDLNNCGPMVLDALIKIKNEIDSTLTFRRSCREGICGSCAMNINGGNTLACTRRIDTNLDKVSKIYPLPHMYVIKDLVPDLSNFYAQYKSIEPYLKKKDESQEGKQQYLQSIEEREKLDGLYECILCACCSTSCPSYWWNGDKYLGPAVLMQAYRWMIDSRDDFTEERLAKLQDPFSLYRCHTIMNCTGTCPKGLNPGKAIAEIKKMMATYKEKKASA
# Chain of UniProt D0VWV4 (whole entry, looked up): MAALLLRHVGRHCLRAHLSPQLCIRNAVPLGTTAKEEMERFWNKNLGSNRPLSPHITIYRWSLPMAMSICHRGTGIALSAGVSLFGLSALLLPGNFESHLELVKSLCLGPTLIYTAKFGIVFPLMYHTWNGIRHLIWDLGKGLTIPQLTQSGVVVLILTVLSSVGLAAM
# Chain of UniProt P43144 (whole entry, looked up): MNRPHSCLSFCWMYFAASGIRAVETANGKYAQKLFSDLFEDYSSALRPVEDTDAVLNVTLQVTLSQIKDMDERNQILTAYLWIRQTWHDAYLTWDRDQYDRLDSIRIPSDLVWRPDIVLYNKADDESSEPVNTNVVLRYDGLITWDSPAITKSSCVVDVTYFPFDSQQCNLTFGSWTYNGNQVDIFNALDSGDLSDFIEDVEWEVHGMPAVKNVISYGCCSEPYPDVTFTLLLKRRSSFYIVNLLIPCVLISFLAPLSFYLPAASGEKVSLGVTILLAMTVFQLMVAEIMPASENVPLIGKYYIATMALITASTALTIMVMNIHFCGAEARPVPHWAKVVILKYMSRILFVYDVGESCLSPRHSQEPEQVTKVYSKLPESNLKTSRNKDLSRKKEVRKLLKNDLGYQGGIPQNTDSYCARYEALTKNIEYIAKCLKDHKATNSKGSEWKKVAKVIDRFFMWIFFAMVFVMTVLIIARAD
# Chain of UniProt Q9JLB5 (whole entry, looked up): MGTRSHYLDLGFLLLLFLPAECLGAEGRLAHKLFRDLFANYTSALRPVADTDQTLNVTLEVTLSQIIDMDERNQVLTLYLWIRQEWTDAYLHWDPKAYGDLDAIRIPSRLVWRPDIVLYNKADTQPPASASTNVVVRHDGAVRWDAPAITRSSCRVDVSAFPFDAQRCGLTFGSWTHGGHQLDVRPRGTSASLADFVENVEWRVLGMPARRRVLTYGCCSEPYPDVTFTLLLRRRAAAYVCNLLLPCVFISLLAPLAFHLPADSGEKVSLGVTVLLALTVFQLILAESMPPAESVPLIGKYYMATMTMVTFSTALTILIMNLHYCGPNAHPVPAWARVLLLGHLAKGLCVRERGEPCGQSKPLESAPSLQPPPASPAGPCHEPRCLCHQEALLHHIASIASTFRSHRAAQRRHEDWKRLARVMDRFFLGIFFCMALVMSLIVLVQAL
# Chain of UniProt Q13418 (whole entry, looked up): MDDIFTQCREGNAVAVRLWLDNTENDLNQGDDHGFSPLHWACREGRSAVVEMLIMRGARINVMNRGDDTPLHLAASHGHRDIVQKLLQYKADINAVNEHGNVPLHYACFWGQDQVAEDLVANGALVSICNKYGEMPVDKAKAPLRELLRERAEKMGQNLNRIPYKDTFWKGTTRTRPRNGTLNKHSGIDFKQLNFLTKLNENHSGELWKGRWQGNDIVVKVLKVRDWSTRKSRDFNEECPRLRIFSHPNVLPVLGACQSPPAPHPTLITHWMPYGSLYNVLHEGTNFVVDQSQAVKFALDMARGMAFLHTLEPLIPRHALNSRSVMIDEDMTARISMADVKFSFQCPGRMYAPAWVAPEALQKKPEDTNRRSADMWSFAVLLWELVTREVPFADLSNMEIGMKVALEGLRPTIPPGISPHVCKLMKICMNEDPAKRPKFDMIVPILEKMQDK
# Chain of UniProt P00330 (whole entry, unmodified, looked up): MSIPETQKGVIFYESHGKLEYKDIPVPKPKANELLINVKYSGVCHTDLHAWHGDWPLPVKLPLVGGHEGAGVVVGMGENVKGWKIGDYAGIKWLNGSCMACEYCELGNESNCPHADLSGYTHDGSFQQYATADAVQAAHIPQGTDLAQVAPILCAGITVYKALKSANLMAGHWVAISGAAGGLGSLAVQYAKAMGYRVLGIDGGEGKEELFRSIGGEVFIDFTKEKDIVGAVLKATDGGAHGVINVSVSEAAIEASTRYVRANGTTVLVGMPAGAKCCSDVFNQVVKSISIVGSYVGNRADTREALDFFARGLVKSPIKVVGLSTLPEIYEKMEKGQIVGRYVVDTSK
# Chain of UniProt P42262 (whole entry, looked up): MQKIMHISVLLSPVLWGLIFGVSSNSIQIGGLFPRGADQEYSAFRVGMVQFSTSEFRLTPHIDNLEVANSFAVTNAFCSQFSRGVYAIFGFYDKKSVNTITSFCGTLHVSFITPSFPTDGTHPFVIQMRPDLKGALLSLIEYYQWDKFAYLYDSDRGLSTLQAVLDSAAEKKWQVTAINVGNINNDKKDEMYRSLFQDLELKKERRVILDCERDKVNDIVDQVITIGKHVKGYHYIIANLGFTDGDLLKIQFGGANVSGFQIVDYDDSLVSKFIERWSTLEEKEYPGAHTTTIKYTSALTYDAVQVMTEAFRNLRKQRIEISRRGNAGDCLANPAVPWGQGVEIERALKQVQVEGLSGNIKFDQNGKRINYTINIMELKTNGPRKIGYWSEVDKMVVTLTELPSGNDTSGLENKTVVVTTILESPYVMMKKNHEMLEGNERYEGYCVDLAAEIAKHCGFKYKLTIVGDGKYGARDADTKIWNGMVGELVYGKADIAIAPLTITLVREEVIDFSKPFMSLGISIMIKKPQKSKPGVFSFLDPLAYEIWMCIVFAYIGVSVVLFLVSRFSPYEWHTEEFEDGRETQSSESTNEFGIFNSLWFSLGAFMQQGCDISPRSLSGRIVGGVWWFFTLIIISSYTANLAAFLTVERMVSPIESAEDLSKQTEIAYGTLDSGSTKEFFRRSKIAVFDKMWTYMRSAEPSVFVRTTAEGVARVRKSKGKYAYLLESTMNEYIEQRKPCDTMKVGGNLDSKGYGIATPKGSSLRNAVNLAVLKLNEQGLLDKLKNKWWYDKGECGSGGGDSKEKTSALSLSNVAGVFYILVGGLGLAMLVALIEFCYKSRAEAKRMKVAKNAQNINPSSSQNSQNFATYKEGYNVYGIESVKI
# Chain of UniProt P07026 (whole entry, looked up): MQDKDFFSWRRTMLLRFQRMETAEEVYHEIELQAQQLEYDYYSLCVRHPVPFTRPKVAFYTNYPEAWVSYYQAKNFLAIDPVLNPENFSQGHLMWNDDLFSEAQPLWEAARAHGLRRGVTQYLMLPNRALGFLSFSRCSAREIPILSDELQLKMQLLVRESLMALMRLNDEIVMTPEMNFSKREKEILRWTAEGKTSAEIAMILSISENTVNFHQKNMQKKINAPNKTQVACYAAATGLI
# Chain of UniProt P27361 (whole entry, looked up): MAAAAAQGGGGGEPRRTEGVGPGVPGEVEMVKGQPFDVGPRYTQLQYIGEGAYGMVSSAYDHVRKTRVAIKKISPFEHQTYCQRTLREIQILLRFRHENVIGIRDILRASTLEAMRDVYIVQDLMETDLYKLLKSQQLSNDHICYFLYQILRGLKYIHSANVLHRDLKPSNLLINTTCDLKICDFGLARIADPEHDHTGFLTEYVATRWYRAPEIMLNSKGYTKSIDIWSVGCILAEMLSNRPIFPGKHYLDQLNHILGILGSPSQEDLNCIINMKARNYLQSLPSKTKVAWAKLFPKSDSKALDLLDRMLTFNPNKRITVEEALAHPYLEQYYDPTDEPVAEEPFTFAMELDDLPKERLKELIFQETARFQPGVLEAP
# Chain of UniProt Q86SQ6 (whole entry, looked up): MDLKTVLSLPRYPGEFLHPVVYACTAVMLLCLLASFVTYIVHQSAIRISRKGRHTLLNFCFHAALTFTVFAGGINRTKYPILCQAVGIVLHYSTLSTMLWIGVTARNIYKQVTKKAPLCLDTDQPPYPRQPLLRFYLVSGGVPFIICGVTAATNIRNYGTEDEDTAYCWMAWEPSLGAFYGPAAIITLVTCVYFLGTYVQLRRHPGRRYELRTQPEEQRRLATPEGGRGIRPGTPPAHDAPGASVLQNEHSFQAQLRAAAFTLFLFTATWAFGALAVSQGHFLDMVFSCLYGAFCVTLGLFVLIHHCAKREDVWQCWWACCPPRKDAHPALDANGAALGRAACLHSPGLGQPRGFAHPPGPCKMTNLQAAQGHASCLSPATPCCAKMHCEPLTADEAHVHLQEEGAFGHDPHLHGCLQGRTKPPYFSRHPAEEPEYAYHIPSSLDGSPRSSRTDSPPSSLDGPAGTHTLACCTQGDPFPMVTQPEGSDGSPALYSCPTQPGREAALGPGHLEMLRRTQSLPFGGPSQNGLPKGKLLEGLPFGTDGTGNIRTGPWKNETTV
# Chain of UniProt P51582 (whole entry, looked up): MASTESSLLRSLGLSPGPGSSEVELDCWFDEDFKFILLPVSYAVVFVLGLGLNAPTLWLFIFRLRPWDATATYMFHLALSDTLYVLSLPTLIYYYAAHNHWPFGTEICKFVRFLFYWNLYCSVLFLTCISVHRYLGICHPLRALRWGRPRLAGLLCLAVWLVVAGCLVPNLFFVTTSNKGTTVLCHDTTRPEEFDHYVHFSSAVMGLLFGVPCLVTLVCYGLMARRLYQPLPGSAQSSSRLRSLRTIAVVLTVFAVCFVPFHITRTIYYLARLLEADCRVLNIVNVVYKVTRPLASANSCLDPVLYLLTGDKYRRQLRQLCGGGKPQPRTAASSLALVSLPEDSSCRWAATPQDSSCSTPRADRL
SMILES,target,assay,test system,setting,scale,endpoint,value
COc1c(Cl)cccc1Nc1c(-c2ccncc2OC[C@@H]2COCCO2)[nH]c2c1C(=O)NCC2,"Receptor tyrosine-protein kinase erbB-2 (ERBB2, Homo sapiens, UniProt P04626)","kinase activity, TR-FRET",,,relative to: DDR2 IC50 over HER2 IC50,selectivity ratio,> 100 fold
O=C(NNC(=O)c1csnn1)c1ccc(Cl)cc1,"Acetyl-CoA synthetase (Cryptococcus neoformans, UniProt J9VFT1)",,,97.7 nM,,remaining activity,97.5%
O=C(c1ccc(Cl)cc1)N1CCN2C(=O)N(OC(=O)N3CCOc4ccccc43)C(=O)C2C1 (stereo not drawn),"sn-1-specific diacylglycerol lipase ABHD11 (ABHD11, Homo sapiens, UniProt Q8NFV4)",MS-based ABPP,SW-620 conditioned medium,"10 µM, 1 h, 37 °C","relative to: compound over DMSO, lower = more inhibition",median protein ratio,1.12
O=C(O)COP(=O)(O)O,"Triosephosphate isomerase (TPI1, Gallus gallus, UniProt P00940, G210A/S211G/Y208T)","enzyme activity, competitive inhibitor, GPDH/NADH-coupled",,"pH 9.3, 25 °C, ionic strength 0.1 NaCl, added: glyceraldehyde 3-phosphate substrate",relative to: mutant over wild type,Ki ratio,4.2
O=c1c2ccccc2oc2cc(OCCCCc3ccccc3)ccc12,"Acetylcholinesterase (ache, Electrophorus electricus, UniProt O42275)","enzyme activity, inhibitor, Lineweaver-Burk plot",,0.73 µM,higher = faster reaction,Vmax,0.0044 a.u.
O=C(Nc1cccnn1)N1CCC(=Cc2cccc(Oc3ccc(C(F)(F)F)cn3)c2)CC1,"Histamine H4 receptor (HRH4, Homo sapiens, UniProt Q9H3N8)",radioligand binding,,"10 µM, added: [3H]histamine",,inhibition of binding,-3%
NC(=O)C1=CN([C@@H]2O[C@H](COP(=O)(O)OP(=O)(O)OC[C@H]3O[C@@H](n4cnc5c(N)ncnc54)[C@H](O)[C@@H]3O)[C@@H](O)[C@H]2O)C=CC1,"ADH1 (Saccharomyces cerevisiae, UniProt P00330, H49Q)","enzyme activity, substrate",,"pH 7.3, 30 °C",,Km,110 µM
N[C@@H](CO)C(=O)O,"trpB, with alpha subunit (Salmonella enterica, UniProt P0A2K1, Q114A)",L-Trp production,,"concentration not given, closed α-site, added: Cs+ bound at MVC site",relative to: wild type,catalytic efficiency reduction,~2.5 fold
Nc1ccncc1,"Glutamate receptor 2 (Homo sapiens, UniProt P42262)","ion current, positive allosteric modulator, automated patch clamp",HEK293,3 µM,,potentiation,88%
CC1(C)C=C(CNc2ccc3c(c2)Cc2cc(Br)ccc2-3)C(C)(C)N1[O],"Amyloid-beta precursor protein, amyloid-beta (APP, Homo sapiens, UniProt P05067)","MRI, MSME","5xFAD mice, brain","iv, 3 mg/kg, 24 h",relative to: wild-type mice,T1 relaxation time,76%
CC[C@@H](C)[C@@H](NC(=O)[C@@H](Cc1ccc(O)cc1)NC(=O)[C@H]1CCCN1C(=O)[C@@H](CCCNC(=N)N)NC(=O)[C@H](N)Cc1c[nH]cn1)C(=O)N[C@H](C)C(=O)N[C@H](Cc1c[nH]cn1)C(=O)N[C@H](CCCNC(=N)N)C(=O)N[C@H](CCCCNC(=O)c1cccc(S(=O)(=O)F)c1)C(=O)N[C@H](Cc1ccc(O)cc1)C(=O)N[C@H](CO)C(=O)N[C@H](Cc1ccccc1)C(N)=O,"Transferrin receptor protein 1 (Tfrc, Mus musculus, UniProt Q62351)",flow cytometry,DC2.4,"48 h, pH 6, replicate 1, unit not given",relative to: 0 h,surface TFRC expression,0.751
Oc1cc(Br)cc(Br)c1Oc1ccc(Br)cc1Br,"Sulfotransferase 1E1 (SULT1E1, Homo sapiens, UniProt P49888)","sulfonation, substrate",,,,apparent Vmax,8.65 nmol/min/mg protein
COc1ccc(N2C(=O)N(c3c(C)cccc3Cl)Cc3cnc(Nc4ccc(C5CCN(C)CC5)cc4OC)nc32)nc1,"Dual specificity mitogen-activated protein kinase kinase 1 (MAP2K1, Homo sapiens, UniProt Q02750)","kinase activity, inhibitor",,"0.5 µM, kinase MEK1",,inhibition,12%
COc1cc(N)c(Cl)cc1C(=O)NC1CN2CCC1CC2 (stereo not drawn),"Adhesion G protein-coupled receptor A1 (ADGRA1, Homo sapiens, UniProt Q86SQ6)","β-arrestin recruitment, TANGO luminescence, measured: GPR123",,concentration not given,relative to: basal luminescence,log2 fold change,0.021
COc1ccc2c3c([nH]c2c1)CCN(C)CC3.O=C(O)/C=C/C(=O)O,"Nicotinic acetylcholine receptor alpha9/alpha10 (Rattus norvegicus, UniProt P43144+Q9JLB5)","ion current, inhibitor, two-electrode voltage clamp",Xenopus laevis oocytes,"1 µM, rat receptor, added: acetylcholine 10 µM",,recovery time constant,9.5 s
Nc1ncc(-c2nc(N3CCOCC3)nc(N3CCOCC3)n2)c(C(F)F)n1,"Serine/threonine-protein kinase LATS2 (LATS2, Homo sapiens, UniProt Q9NRM7)",KINOMEscan,,10 µM,,remaining binding,89%
O=C(Cc1cccc([N+](=O)[O-])c1)NC1CCCC1,"Regulatory protein SdiA (sdiA, Escherichia coli, UniProt P07026)",,,,,Emax,103%
C=C(CN(C(=O)c1c(C(F)F)nn(C)c1F)C1CC1)c1ccc(Cl)cc1Cl,"SDHD/SDHC/SDHB (Sus scrofa, UniProt A5GZW8+D0VWV4+Q007T0)","enzyme activity, inhibitor, DCIP reduction",pig,"0.4 µM, added: DCIP 120 µM",,reaction velocity,0.0141 µM/s and 0.0132 µM/s and 0.0129 µM/s
CC12CCC(CC1)C(C)(C)O2,"1,8-cineole 2-endo-monooxygenase (cinA, Citrobacter braakii, UniProt Q8VQF6, Y81F)",NADPH turnover,,Y81F mutant,relative to: wild type,Vmax decrease,~30%
Nc1nc2c(ncn2[C@@H]2O[C@H](COP(=O)(O)OP(=O)(O)OP(=O)(O)O)[C@@H](O)[C@H]2O)c(=O)[nH]1,"GTP 3',8-cyclase (moaA, Staphylococcus aureus, UniProt P69848, R268K)",isothermal titration calorimetry,,"concentration not given, 25 °C, R268K mutant, anaerobic",,binding entropy ΔS,-25.1 cal/mol/K
COC(=O)[C@@]1(O)C[C@H]2O[C@]1(C)n1c3ccccc3c3c4c(c5c6ccccc6n2c5c31)C(=O)NC4,"Mitogen-activated protein kinase 3 (MAPK3, Homo sapiens, UniProt P27361)",ADP-Glo,,"35 µM, added: substrate MBP",,remaining activity,115%
[2H]c1c([2H])c([C@]2([2H])CCCN2C(=O)C(C)(C)Oc2ccc3cn[nH]c3c2)c([2H])c([2H])c1C([2H])([2H])[2H],"Tyrosine-protein kinase JAK1, JH1 kinase domain (JAK1, Homo sapiens, UniProt P23458)",KINOMEscan,,1 µM,relative to: DMSO control,remaining binding,84%
CN[C@H]1CC[C@@H](c2ccc(Cl)c(Cl)c2)c2ccc(S(N)(=O)=O)cc21,"DDB1- and CUL4-associated factor 7 (Homo sapiens, UniProt P61962)","binding, affinity selection mass spectrometry",,"100 nM, pooled screen",relative to: other proteins,fold change,30.2
COc1ccc(F)cc1C(=O)NCc1ccc(-c2nn([C@@H](C)C(F)(F)F)c(N)c2C(N)=O)cc1,"Tyrosine-protein kinase TXK (TXK, Homo sapiens, UniProt P42681)",enzyme activity,,,relative to: TXK over BTK,selectivity ratio,66.3
COc1ccc(S(=O)(=O)N2CCCCC2)cc1C,panel of GPCRs and ion channels,radioligand binding,,10 µM,all targets,radioligand displacement,< 30%
CN1CCN(c2cc(-c3ccncc3)c(-c3ccc4ccccc4c3)nn2)CC1,"P2Y purinoceptor 4 (P2RY4, Homo sapiens, UniProt P51582)","agonist, FLIPR",,12.5 µM,,activation,0.4%
N[C@@H](Cc1c[nH]c2ccccc12)C(=O)O,"Tryptophan decarboxylase (Mediterraneibacter gnavus, UniProt A7B1V0)",substrate,,,,Km,1600 µM
O=Cc1ccccc1,"uncharacterized protein (Spodoptera exigua, UniProt F1CEY0)","binding, competitor, fluorescence displacement",,"20 µM, pH 7.4, added: 1-NPN 20 µM",relative to: 1-NPN alone,relative fluorescence,66.4%
CC1(C)C(C=C(Cl)Cl)C1C(=O)OCc1cccc(Oc2ccccc2)c1 (stereo not drawn),"uncharacterized protein (Anopheles coluzzii, UniProt A0A6E8VQK1)","enzyme activity, inhibitor",Sf9 cell homogenate,"69.77 µM, 0.1667 h, added: α-naphthyl acetate substrate",relative to: no inhibitor,remaining activity,96.8%
CC(C)[C@@H](O)CC[C@@H](C)[C@H]1CC[C@H]2[C@@H]3CC=C4C[C@@H](O)CC[C@]4(C)[C@H]3CC[C@]12C,"Glutamate NMDA receptor; GRIN1/GRIN2B (GRIN1/GRIN2B, Homo sapiens, UniProt Q05586+Q13224)","ion current, positive allosteric modulator, two-electrode voltage clamp",Xenopus oocytes,"10 µM, wild type, added: 100 µM glutamate and glycine",relative to: absence of compound,current potentiation,174 ± 4.9%
CSCC[C@H](NC(=O)CNC(=O)[C@H](CC(N)=O)NC(=O)[C@H](CCSC)NC(=O)[C@H](CCSC)NC(=O)[C@H](CCC(N)=O)NC(=O)[C@H](Cc1c[nH]c2ccccc12)NC(=O)[C@@H](N)CCSC)C(=O)N[C@@H](CO)C(=O)N[C@@H](CCC(N)=O)C(N)=O,huntingtin exon 1 bundled fibrils,EPR spectra quantification,,8 µM,,binding to bundled fibrils,~15%
C[C@H]1CN(c2n[nH]c3nc(N[C@H]4CC[C@H](NS(=O)(=O)CCC(F)(F)F)CC4)ncc23)CCO1,"Scaffold protein ILK (ILK, Homo sapiens, UniProt Q13418)","inhibitor, Kinobeads competition profiling",,20 µM,relative to: vehicle,relative abundance,1.09
CC1=C(C)C(=O)c2ccccc2C1=O,"Reaction center protein L chain, QB site (pufL, Cereibacter sphaeroides, UniProt P0C0Y8)",binding,,,relative to: QA site over QB site,affinity ratio,> 3000 fold
O=C(CF)N[C@H]1[C@H]([C@H](O)[C@H](O)CO)O[C@@](OC[C@H]2O[C@@H](Oc3ccc([N+](=O)[O-])cc3)[C@H](O)[C@@H](O)[C@H]2O)(C(=O)O)C[C@@H]1O,"Sialidase-2 (Homo sapiens, UniProt Q9Y3R4)",substrate,,"10 min, pH 5.0, 37 °C",,Vmax,0.00076 ± 5e-05 mM/s
NC(CC1(C(=O)O)CC2OC(CO)C(O)C(N)C2O1)C(=O)O (stereo not drawn),"Glutamate receptor ionotropic, kainate 1 (Rattus norvegicus, UniProt P22756, del402-416)","glutamate-evoked current, patch clamp",,"concentration not given, 30 s application",,recovered plateau current amplitude,69%
Nc1ncnc2c1ncn2[C@@H]1O[C@H](COP(=O)(O)OP(=O)(O)NP(=O)(O)O)[C@@H](O)[C@H]1O,"Cell cycle histidine kinase CckA, cytoplasmic region (Caulobacter vibrioides, UniProt Q9X688)",ITC,,without c-di-GMP,,ΔS,18.1 cal/mol/K

# Some of these lines once more:
SMILES,target,assay,test system,setting,scale,endpoint,value
O=C(CF)N[C@H]1[C@H]([C@H](O)[C@H](O)CO)O[C@@](OC[C@H]2O[C@@H](Oc3ccc([N+](=O)[O-])cc3)[C@H](O)[C@@H](O)[C@H]2O)(C(=O)O)C[C@@H]1O,"Sialidase-2 (Homo sapiens, UniProt Q9Y3R4)",substrate,,"10 min, pH 5.0, 37 °C",,Vmax,0.00076 ± 5e-05 mM/s
COc1ccc(N2C(=O)N(c3c(C)cccc3Cl)Cc3cnc(Nc4ccc(C5CCN(C)CC5)cc4OC)nc32)nc1,"Dual specificity mitogen-activated protein kinase kinase 1 (MAP2K1, Homo sapiens, UniProt Q02750)","kinase activity, inhibitor",,"0.5 µM, kinase MEK1",,inhibition,12%
COc1ccc(S(=O)(=O)N2CCCCC2)cc1C,panel of GPCRs and ion channels,radioligand binding,,10 µM,all targets,radioligand displacement,< 30%
Nc1ncnc2c1ncn2[C@@H]1O[C@H](COP(=O)(O)OP(=O)(O)NP(=O)(O)O)[C@@H](O)[C@H]1O,"Cell cycle histidine kinase CckA, cytoplasmic region (Caulobacter vibrioides, UniProt Q9X688)",ITC,,without c-di-GMP,,ΔS,18.1 cal/mol/K
